Assay results of several laboratories.
Lines come from different studies, so protocols differ.

`OC(CCN1CCCCC1)(c1ccccc1)C1CC2C=CC1C2` (stereo not shown) — result for “EEG power, alpha, Fz-Cz”: 4 µV² (resting-state EEG; healthy elderly humans; oral, 4 mg, eyes open, LS mean).
`COc1cc2cc(-c3ccc(CC(=O)Nc4cc(C(C)(C)C(F)(F)F)no4)cn3)cnc2cc1OC`: “best overall response PR” 29% (RECIST v1.1; human RET-mutant medullary thyroid cancer; 75 mg, phase I).
`CN(C)C(=O)c1cc2cnc(Nc3ccc(N4CCNCC4)cn3)nc2n1C1CCCC1` — result for “normalized enrichment score”: 1.37 (RNA-seq GSEA, item: HALLMARK_XENOBIOTIC_METABOLISM gene set; MB002 tumour; concentration not given; reference: vehicle, direction not given).
Under “time to maximum PT over baseline”, `C[C@@H](NC(=O)N1C(=O)[C@H](Cc2ccnc(N)c2)[C@H]1C(=O)O)C1CCCCC1` is recorded as 121 h (human, plasma; continuous intravenous infusion, 0.3 mg/kg/h, days 1 to 6 of 5-day infusion, median; reference: baseline).
The inhibition of `CN[C@@H]1COc2c(S(=O)(=O)NC(=O)Nc3c4c(cc5c3CCC5)CCC4)cnn2C1` is reported as 48% (item: IL-18; human participants, whole blood ex vivo; 1800 mg single dose, 72 h, IL-18, circulating, adjusted for, with: LPS/ATP; reference: baseline).
Under “difference from placebo”, `C[C@H](Oc1ccc(Br)cc1-c1ccon1)C(=O)O` is recorded as 8.41% (first response peak; human, tibialis anterior muscle; 50 mg, 30 Hz, single ascending dose).
For `N#Cc1ccc2c(c1)[C@H]1CCCN(C(=O)c3ccc4[nH]cnc4c3)[C@H]1C2`, “C-peptide AUC change” read -0.09 pmol/h/L (meal tolerance test; human, Phase II trial; 240 mg once daily, day 28, AUC0-2 h, adjusted mean; reference: baseline).
The sarcomere length of `O=C(O)CNC(=O)Cc1ccccc1` is reported as 1.65 µm (ventricular cardiomyocytes, C57BL/6 mouse; dose not given, 0.248 s).
`C[C@@H]1Cc2c([nH]c3ccccc23)[C@@H](c2c(F)cc(/C=C/C(=O)O)cc2F)N1CC(C)(C)F` has a uterine weight of 51 mg (ER agonist activity; immature rat; oral, 10 mg/kg daily x3).
For `C[C@H]1C[C@H]2CSC(N)=N[C@@]2(c2nc(NC(=O)c3ccc(OC(F)F)cn3)cs2)CO1`, “percent change from baseline” read -88.3% (item: Aβ1-40; healthy adults, plasma; 275 mg once daily, day 1; reference: placebo).
`CC(C)NCC(O)c1ccc(O)c(O)c1` (stereo not shown) has a sarcomere length of 1.72 µm (ventricular cardiomyocytes, C57BL/6 mouse; dose not given, 0.396 s).
`COc1ncc(-c2nc3c(n2C(C)C)[C@H](c2ccc(Cl)cc2)N(c2cc(Cl)cn(C)c2=O)C3=O)c(OC)n1`: “best overall response” 62.5% (International Working Group criteria; human acute myeloid leukemia patients; oral, 120 mg, response TF, high-dose, recommended dose for expansion).
For `Cc1nn(-c2nc3c(F)cc(F)cc3s2)c(O)c1C(c1ccc(C(F)(F)F)cc1)c1c(C)nn(-c2nc3c(F)cc(F)cc3s2)c1O`, the histology score was 0 (item: fat necrosis; mouse, cerulein-induced acute pancreatitis; 25 mg/kg; direction not given).
`O=c1cc(-c2ccc(O)cc2)oc2c([C@@H]3OC[C@H](O)[C@H](O)[C@H]3O)c(O)c([C@@H]3O[C@H](CO)[C@@H](O)[C@H](O)[C@H]3O)c(O)c12`: cardiac hypertrophy “decreased” (item: HW/TL, LV mass, LVPWd; HFpEF mice, AngII-induced; oral, 20 and 40 mg/kg/day).
For `c1ccc(-c2n[nH]cc2-c2ccnc3ccccc23)nc1`, “log2 fold change” read 1.16 (kinase binding, competitor, MIB/MS competition, item: SCH9; Candida albicans cell lysate; 1 µM; reference: DMSO).
`NC(=O)c1cnc2[nH]ccc2c1N[C@@H]1[C@@H]2CC3C[C@H]1C[C@@](O)(C3)C2` — result for “change from baseline”: 1.37% (flow cytometry, item: CD8+ memory T cells; Japanese healthy subjects, peripheral blood; oral, 30 mg twice daily, day 7).
